Measured values collected from several papers.
Each numbered part is a random draw from the data of one study; scales do not carry over between parts.

Series 1
Target: Histone acetyltransferase KAT6A, winged helix 2, GST fusion (KAT6A, Homo sapiens, UniProt Q92794, residues 85-181)
Technique: protein binding microarray
Form: double-stranded DNA, one strand shown
Medium: in vitro
Concentration: not given
Setting: 8-mer, flanks averaged, mean of 2 arrays, mostly near background
Relative to: not given
Reading: higher = stronger binding
Residues (chain): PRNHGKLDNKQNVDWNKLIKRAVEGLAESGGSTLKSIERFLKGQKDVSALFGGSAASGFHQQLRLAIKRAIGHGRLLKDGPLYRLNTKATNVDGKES
Strand	E-score
TATGGACA	-0.0673
ACTATCGA	-0.0813
AGGGGGAC	-0.129
GCAGCCGC	0.181
ATGGTTTA	-0.0444
GCCTTATA	-0.0429
AAACTTCA	-0.0635
GAGCCCTC	0.00843
TCACTCGA	-0.0125
AGAGCGGG	0.12
TCAGAGGA	0.0389
ACATGAGA	0.0391
AGTAACCG	-0.0713
AACGCATA	0.0735
CACGTTTA	-0.111
ACAGGAAC	-0.0287
ATACTTTC	-0.0544
GACATCCC	0.00583
ACTAGACA	0.0221
AAGAAACC	0.0873
TAAGATGA	-0.231
AAGGCAGA	-0.053
AGGTGACA	0.0492

Series 2
Target: Ras GTPase-activating protein-binding protein 1, RRM domain (G3BP1, Homo sapiens, UniProt Q13283)
UniProt Q13283, sequence (whole entry, looked up): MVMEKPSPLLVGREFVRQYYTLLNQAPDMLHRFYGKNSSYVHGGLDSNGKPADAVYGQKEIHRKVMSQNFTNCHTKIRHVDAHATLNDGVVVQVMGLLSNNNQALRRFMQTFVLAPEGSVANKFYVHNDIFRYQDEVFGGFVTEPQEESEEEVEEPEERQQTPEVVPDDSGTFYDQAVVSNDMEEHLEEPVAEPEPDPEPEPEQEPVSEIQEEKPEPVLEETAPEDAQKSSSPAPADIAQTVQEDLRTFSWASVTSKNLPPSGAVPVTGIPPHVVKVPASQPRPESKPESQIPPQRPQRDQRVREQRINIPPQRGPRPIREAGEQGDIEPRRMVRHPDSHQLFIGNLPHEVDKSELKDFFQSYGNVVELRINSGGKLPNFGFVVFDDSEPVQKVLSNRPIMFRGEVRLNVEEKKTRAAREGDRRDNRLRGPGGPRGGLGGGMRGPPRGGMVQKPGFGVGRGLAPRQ
Technique: RNA Bind-n-Seq
Form: RNA
Medium: in vitro
Concentration: 1 µM
Setting: whole 134-nt RNA, ends assumed
With: 150 mM KCl
Relative to: input library
Reading: higher = stronger binding
All sequences stand within: GGGAGUUCUACAGUCCGACGAUC … UGGAAUUCUCGGGUGUCAAGG
Strand	log2 enrichment
UCCCUGAAUCACCGACUGGAGGAGAGUUACCUACAAGAGCCUUCAUCCAGGAGCAUCCACACUGCAAUGAUAUAGGAAUGAGGUCUGAAC	-0.15
GUCCUGUGCUACACAUCGUAUGUACCGAAUCGGGAAAAAAGGGAAAAAAGGAAAAAAGGAAAGUAUUAUGUUACGCCGUUCGGAUCUGCA	0.131
CUCAAGUCCUGUGCUACACAUCGUAUGUACCGAAUCGGAGGAAAGGUUUUUGGAAAGUAUUAUGUUACGCCGUUCGGAUCUGCACUUCCA	-0.226
CUGUGCUACACAUCGUAUGUACCGAAUCGGGGCCCCCCCGGCCCCCCCGGGGCCCCCCCGGGAAAGUAUUAUGUUACGCCGUUCGGAUCU	-0.56
UCCCCCCUAUUGGAAGUAAAGGGGAACAUAGAACUGAAGAGACCUCUGAUUAAGGCCCCUUCCCAGCUGCCUCUCUCAGGAAGCAGACUC	-0.359
UCCUCAAGUCCUGUGCUACACAUCGUAUGUACCGAAUCGGCCGGCCGGCCGGAAAGUAUUAUGUUACGCCGUUCGGAUCUGCACUUCCAG	-0.406
UCAAGUCCUGUGCUACACAUCGUAUGUACCGAAUCGGGGCCGGGGCCGGCCGGGAAAGUAUUAUGUUACGCCGUUCGGAUCUGCACUUCC	-0.931
CUGUGCUACACAUCGUAUGUACCGAAUCGGGGAAAAAAAGGAAAAAAAGGGAAAAAAAGGGAAAGUAUUAUGUUACGCCGUUCGGAUCUG	0.14
UCAAGUCCUGUGCUACACAUCGUAUGUACCGAAUCGGAAAAAAAGGAAAGGAGGAAAGUAUUAUGUUACGCCGUUCGGAUCUGCACUUCC	-0.0761
GUCCUGUGCUACACAUCGUAUGUACCGAAUCGGGUUUGGGAAAAAAAGGGAAAAAGGGAAAGUAUUAUGUUACGCCGUUCGGAUCUGCAC	0.304
CCUCAAGUCCUGUGCUACACAUCGUAUGUACCGAAUCGGGUGGGUGGGUGGGAAAGUAUUAUGUUACGCCGUUCGGAUCUGCACUUCCAG	0.641
UGGCCCUUGUGGCAUGCGGGGAGGAAGAGGUGGCCUCAUGGAUCGUGGUGGUCCCGGUGGAAUGUUCAGAGGUGGCCGUGGUGGAGACAG	0.383
AGUCCUGUGCUACACAUCGUAUGUACCGAAUCGGUUUUUGGAAAAAGGAAAAAAAGGAAAGUAUUAUGUUACGCCGUUCGGAUCUGCACU	0.0366
UCCUGUGCUACACAUCGUAUGUACCGAAUCGGAAAAAAAGGUUUUUUUGGAAAAAAAGGAAAGUAUUAUGUUACGCCGUUCGGAUCUGCA	-0.279

Series 3
Target: Prothrombin, mature alpha-thrombin (F2, Homo sapiens, UniProt P00734)
Technique: aptamer microarray, sandwich
Form: DNA with 2'F-ANA
Medium: in vitro
Concentration: 200 nM
Setting: whole 15-mer aptamer, many near background
With: Cy3 exosite-II aptamer, 400 nM
Reading: higher = stronger binding
Strand: GGTTGGTGTGGTTGG
Modification	mean fluorescence intensity [a.u.]
2'F-ANA at 2 3 4 6 8 9 12 13 14 15	245
2'F-ANA at 2 3 4 7 10 11 12 13 15	239
2'F-ANA at 1 2 4 6 7 8 9 11 12 13 15	140
2'F-ANA at 2 4 6 7 9 10 11 12	103
2'F-ANA at 4 5 10 11 13 14 15	59.9
2'F-ANA at 8 10 12 14 15	120
2'F-ANA at 1 5 9 10 11 12 14	46.9
2'F-ANA at 3 4 5 7 9 10 11 13 14 15	69.6
2'F-ANA at 1 2 4 5 6 7 8 9 10 11 14	54.6
2'F-ANA at 1 2 4 8 13 15	103
2'F-ANA at 1 2 4 7 8 9 10 11 12 13	56
2'F-ANA at 1 2 3 7 8 10 13	62.4
2'F-ANA at 1 3 7 8 10 11 12 15	98.7
2'F-ANA at 4 6 9 11 15	195
2'F-ANA at 3 4 5 9 11 12 14 15	52.8
2'F-ANA at 3 5 6 7 9 10 11 14 15	53.2
2'F-ANA at 1 5 10 12 13 14 15	47.1
2'F-ANA at 4 5 6 8 11 14 15	62.5

Series 4
Target: Sal-like protein 4, full length isoform B (SALL4, Homo sapiens, UniProt Q9UJQ4-2, residues 1-616)
Technique: universal PBM
Form: double-stranded DNA, one strand shown
Medium: in vitro
Concentration: not given
Setting: 8-mer, flanks averaged, mean of replicates
Reading: higher = stronger binding
Strand	E-score
GCATACAA	0.138
AAGAGTCG	-0.0544
CCCCAACC	-0.288
CAACTCTG	-0.179
ACTATGAT	0.161
GCAGGCCC	-0.443
CGTCCAAA	0.0353
GTATACAC	0.236
ACAAGGCC	-0.101
CTCGCCGC	-0.32
GAGTCGAC	-0.159
GCTCCTCC	-0.257
CTCCAAGA	-0.137
AGATATCT	0.181
AGCACGTA	-0.0131
GGAAGTCC	-0.23
ACCTGATG	-0.107
GCCACGTA	-0.0568
CAGGAGGA	-0.337
GCCCGGAC	-0.327
AGCAGCTA	-0.104
ATTACGGG	0.0655
AAGGAAGT	0.0169
ACGTCTGA	0.101
TCAGAAGA	-0.0994

Series 5
Target: RNA binding protein fox-1 homolog 2, RRM domain, GST-SBP tag (RBFOX2, Homo sapiens, UniProt O43251-10, residues 100-194)
Technique: RNA Bind-n-Seq
Form: RNA
Medium: in vitro
Concentration: 365 nM
Setting: natural RNA segment, single round, ends assumed
Relative to: no-protein control
Reading: higher = stronger binding
All sequences stand within: GGGAGUUCUACAGUCCGACGAUC … UGGAAUUCUCGGGUGCCAA
Residues (chain): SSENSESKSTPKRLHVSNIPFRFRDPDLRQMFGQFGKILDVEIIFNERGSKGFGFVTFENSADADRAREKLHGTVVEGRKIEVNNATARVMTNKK
Strand	RBNS enrichment (R)
AUAUAUAUAUGCUGCAUAUAUAUUUAUAAAAUUUCUAGUGGGAGUUCUAUAUAAAAAGAUGUUUCUUUGGUAUUCUUCAGCCUGUGUUUUCAAGUUUUACAGAAGCAGAG	1.12
CCUGUAAUAGCACUUUGGAACUGUGGGCAAAACCAAAAGGCUAGUGUUUCCAUUUAUUCCAUGUUGGUGUAUGGGGUUGAACUGGAAAAUUCCCUGAGGCAAAACUCACU	0.242
CCCCCAGCUCCACUGGCCCAAGUCUGAGCCUGGGGCCCUUGCUUUGAGGGGCCAGUCCGAGUUGGAUGGGACUGCCCUCAAGGAACAAGGCUAAUGUGUGUGUGUAUGUU	1.91
GCUGGAAAUUCAUCACAACCUGAGGCCCAGGAUCUGCUCUGUGCCGGUCCUCUGGGCAGUGUGGGGUGCAGAAUGGGGUGCCUAGGCCUGAGCGUUGCCUGGAGCCUAGG	0.333
AUUCAGCCUCAGUAGUAGCGAACUGCACUGCUGUUUGGUUUGGAGUACAAAUUAGACUUAUAGUCCUCCUGGAACUUGAGUUAUUAAAAUCAUAGGAAUAAAAUUAUGGG	0.307
UCUGACCCGAGGAAGCACCCUCCUGACGCCGCCUUCCUCCGGUUAUUGAAAGGACGCCUCAGAAAUGCUUUGUUUUCUUUUACGAUGUAUUCAGAAGCCUUUACUGAUUA	0.438
GAACCUCCACAAGGCUAAAUAAAAUUACAUUUGUGACCAUCAGAGAACUGAAUAAACCAUUAACUGGCCAUCCUGGUUUUGCAGAGAUCAGGUUGUUGACAGUUCCUGGU	0.304
CCUAGAGCAGUGUCACAAGCUUCAGUAAGGCCAGUCAGCUGGAAGUCAGUCUACCGUAUAGUAACACUGUAUGUCAGUCUACAGACCACACUCUAGUUGUUUUCCAUGAA	0.254
UUGUAGACUUUGGUAGUGCAACAUAUGAUGACGAACAUCACAGUACAUUGGUAUCUACAAGACAUUAUAGAGCACCUGAAGUUAUUUUAGCCCUAGGGUGGUCCCAACCA	0.285
UUGCUUGCUUGCUUGCUUGCCCUUAAAGAACAGAUCAAGCCUACAUACUCCAUACACUAUACUUCAUACUACAAGCUCCAUCUGUCCUCAGAUAAUUGUCUGACUUUUUU	7.44
CUGCCAUUGCACUUUGUAAAUCUGUAGAAUCGCUCGUAUAAAAUUUCUAUUAAAGAUUCUAGUGAAACAUAAAGUUGUAUUGUGUUCACCUUAAAACUUAUUGGAUUAUG	0.709
AACUGCAUUGUAUCUAAAGCCUUAGAACUAGUCAGGUGCUCCUCCCACCCAAUACCAUUUCUUACCCUCUAAUCCUACCUGAUCUUUAACAAAGCAUUAAUAAUUCUAAG	0.838

Repeated from above (series 3):
Modification	mean fluorescence intensity [a.u.]
2'F-ANA at 1 5 10 12 13 14 15	47.1
2'F-ANA at 4 5 10 11 13 14 15	59.9
2'F-ANA at 1 2 4 8 13 15	103
2'F-ANA at 1 5 9 10 11 12 14	46.9
2'F-ANA at 2 3 4 6 8 9 12 13 14 15	245
